Results from different studies.
Compare with care: the assays were run in different laboratories. ± marks the error that the study gave.
Cell line: NCI-H460

Fc1ccc2[nH]c(-c3cc4ccccc4nc3Cl)nc2c1 has an IC50 of > 100 µM (cell growth or viability, MTT; 48 h).
CCC1=C(CC)C2=[N+]3C1=Cc1c(CC)c(CC)c4[n]1[Ir-3]31([n+]3ccccc3)([n+]3ccccc3)[n]3c(c(CC)c(CC)c3=CC3=[N+]1C(=C4)C(CC)=C3CC)=C2.Cl has an IC50 of 0.005 ± 0.001 µM (cytotoxicity; 1 h, added: visible light 2.8 mW/cm2).
O=C(CCCCCCN1CCN(c2ccc(Nc3ncc(F)c(-c4cn(C5CCCC5)nn4)n3)cc2)CC1)NO has an IC50 of 1.2 µM (cell growth or viability, SRB; 72 h).
CCNC(=O)OCc1c(COC(=O)NCC)c(-c2ccc(OC)cc2)n2c1Cc1ccccc1-2 has an IC50 of 17.5 µM (cell growth or viability, resazurin; 72 h).
For CCC1=C(CC)C2=[N+]3C1=Cc1c(CC)c(CC)c4[n]1[Ir-3]31([C]#[N+]c3ccc(OC)cc3)([C]#[N+]c3ccc(OC)cc3)[n]3c(c(CC)c(CC)c3=CC3=[N+]1C(=C4)C(CC)=C3CC)=C2.F[B-](F)(F)F, the IC50 was 2.9 µM (cell growth or viability; dark).
CC(C)Cn1cc(-c2ccnc(Nc3ccc(N4CCN(CCCCCCC(=O)NO)CC4)cc3)n2)nn1 gave an IC50 of 4.86 µM (cell growth or viability, SRB; 72 h).
With COCC12CCC(OC)C34C5CC6(O)C(O)C5C(O)(C(O)C6OC)C(CC13)C4N(C)C2 (centres unmarked) the IC50 was 22.8 µM (cell growth or viability, MTT).
The IC50 of O=[N+]([O-])[O-].O=[N+]([O-])[O-].[Cu+2].[Cu+2].c1ccc(-c2nc(-c3ccc4c(c3)OCO4)n[n-]2)nc1.c1ccc(-c2nc(-c3ccc4c(c3)OCO4)n[n-]2)nc1 is reported as 5.27 µM (cell growth or viability, MTT; 24 h).
With Cc1cc2nc(-c3cc4ccccc4nc3Cl)[nH]c2cc1C the IC50 was 14 µM (cell growth or viability, MTT; 48 h).
The IC50 of O=c1[nH]c2ccccc2nc1/C=C/c1ccccc1Br is reported as 9.62 µM (cell growth or viability, MTT; 72 h).
The IC50 of CCCCCCCC(=O)NCCNC(=O)[C@@]1(C)[C@H](O)CC[C@@]2(C)[C@H]1CC[C@]1(C)[C@@H]2C(=O)C=C2[C@@H]3[C@@H](C)[C@H](C)CC[C@]3(C)CC[C@]21C is reported as 14.1 µM (cell growth or viability, MTT; 48 h).
For COc1ccc(-c2nnc(-c3ccccn3)[nH]2)cc1OC, the IC50 was > 100 µM (cell growth or viability, MTT; 24 h).
CC(=O)O[C@@H]1CC[C@@]2(C)[C@@H](CC[C@]3(C)[C@@H]2C(=O)C=C2[C@@H]4[C@@H](C)[C@H](C)CC[C@]4(C)CC[C@]23C)[C@@]1(C)C(=O)NCCNC(=O)CCCCCBr has an IC50 of 9.31 µM (cell growth or viability, MTT; 48 h).
For Clc1cc2nc(-c3cc4cc5c(cc4nc3Cl)OCO5)[nH]c2cc1Cl, the IC50 was > 100 µM (cell growth or viability, MTT; 48 h).
The IC50 of O=C(NCCCNc1n[n+]([O-])c2ccccc2[n+]1[O-])C(F)(F)F is reported as 55.9 ± 7.4 µM (cytotoxicity, MTT; 10% FBS medium; 6 h + 18 h, hypoxia 3% O2).
With CCCCCCC(=O)NCCNC(=O)[C@@]1(C)[C@H](O)CC[C@@]2(C)[C@H]1CC[C@]1(C)[C@@H]2C(=O)C=C2[C@@H]3[C@@H](C)[C@H](C)CC[C@]3(C)CC[C@]21C the IC50 was 13.3 µM (cell growth or viability, MTT; 48 h).
N#Cc1c(-c2ccc(Cl)cc2)cc(-c2cccc3ccccc23)nc1NNC(=O)Cc1ccccc1 gave an IC50 of 0.025 µM (cell growth or viability, MTT; 72 h).
The IC50 of O=C(NCCCCCCCNc1n[n+]([O-])c2ccccc2[n+]1[O-])C(F)(F)F is reported as 46.8 ± 20.3 µM (cytotoxicity, MTT; 10% FBS medium; 6 h + 18 h, hypoxia 3% O2).
The IC50 of CC(C)Cn1cc(-c2ccnc(Nc3ccc(C(=O)Nc4ccccc4N)cc3)n2)nn1 is reported as 7.02 µM (cell growth or viability, SRB; 72 h).
C=C1CC23CC4C5C6(C)CC(O)CC57C(C2C(O)C1C(O)C37)N4C6 (centres unmarked) gave an IC50 of 14.1 µM (cell growth or viability, MTT).
For COc1ccc(CN2C(=O)C(=O)c3cc(NC(C)=O)ccc32)cc1, the IC50 was 28.4 µM (cell growth or viability, MTT; 48 h).
For Cc1ccc2nc(Cl)c(-c3nc4cc(Br)ccc4[nH]3)cc2c1, the IC50 was > 100 µM (cell growth or viability, MTT; 48 h).
O=C(NCCCCCNc1n[n+]([O-])c2ccccc2[n+]1[O-])C(F)(F)F has an IC50 of 70.8 ± 27.3 µM (cytotoxicity, MTT; 24 h, normoxia 20% O2).
With CC(=O)O[C@@H]1CC[C@@]2(C)[C@@H](CC[C@]3(C)[C@@H]2C(=O)C=C2[C@@H]4[C@@H](C)[C@H](C)CC[C@]4(C)CC[C@]23C)[C@@]1(C)C(=O)NCCNC(=O)CCBr the IC50 was 11.9 µM (cell growth or viability, MTT; 48 h).
For NS(=O)(=O)c1ccc(Nc2nccc(-c3cn(C4CCCCC4)nn3)n2)cc1, the IC50 was 4.62 µM (cell growth or viability, SRB; 72 h).
The IC50 of Cc1ccc2nc(Cl)c(-c3nc4cc(C)c(C)cc4[nH]3)cc2c1 is reported as > 100 µM (cell growth or viability, MTT; 48 h).
The IC50 of O=C(O)Cc1ccccc1Nc1c(Cl)cccc1Cl.O=C(O)Cc1ccccc1Nc1c(Cl)cccc1Cl.c1cnc2c(c1)ccc1cccnc12.c1cnc2c(c1)ccc1cccnc12 is reported as 3.87 ± 0.04 µM (cell viability, MTT; 48 h).
CN1CCN(c2ccc(C(=O)Nc3n[nH]c4ccc(Cc5cc(F)cc(F)c5)cc34)c(NC3CCOCC3)c2)CC1 gave an IC50 of 3.5 µM (cell growth or viability, MTT; 72 h).
With CC(=O)O[C@@H]1CC[C@@]2(C)[C@@H](CC[C@]3(C)[C@@H]2C(=O)C=C2[C@@H]4[C@@H](C)[C@H](C)CC[C@]4(C)CC[C@]23C)[C@@]1(C)C(=O)NCCNC(=O)CCCC[P+](c1ccccc1)(c1ccccc1)c1ccccc1 the IC50 was 14.1 µM (cell growth or viability, MTT; 48 h).
Clc1nc2ccccc2cc1-c1nc2cc(Br)ccc2[nH]1 has an IC50 of 31.4 µM (cell growth or viability, MTT; 48 h).
For Cc1ccc(C(=O)NCCNC(=O)[C@@]2(C)[C@H](O)CC[C@@]3(C)[C@H]2CC[C@]2(C)[C@@H]3C(=O)C=C3[C@@H]4[C@@H](C)[C@H](C)CC[C@]4(C)CC[C@]32C)cc1, the IC50 was 4.31 µM (cell growth or viability, MTT; 48 h).
The IC50 of O=c1[nH]c2ccccc2nc1/C=C/C=C/c1ccccc1 is reported as 14.6 µM (cell growth or viability, MTT; 72 h).
C[C@H]1[C@H](C)CC[C@]2(C)CC[C@]3(C)C(=CC(=O)[C@@H]4[C@@]5(C)CC[C@@H](O)[C@](C)(C(=O)NCCNC(=O)c6ccccc6)[C@@H]5CC[C@]43C)[C@H]12 gave an IC50 of 14.3 µM (cell growth or viability, MTT; 48 h).
The IC50 of COc1ccc2nc(Cl)c(-c3nc4ccccc4[nH]3)cc2c1 is reported as > 100 µM (cell growth or viability, MTT; 48 h).
The IC50 of CCOC12C(O)C(OC)C3(O)CC(C1C3OC(=O)c1ccccc1)C13C(OC)CCC4(COC)CN(C)C1C2C(OC)C43 (centres unmarked) is reported as 13.9 µM (cell growth or viability, MTT).
CC(=O)O[C@@H]1CC[C@@]2(C)[C@@H](CC[C@]3(C)[C@@H]2C(=O)C=C2[C@@H]4[C@@H](C)[C@H](C)CC[C@]4(C)CC[C@]23C)[C@@]1(C)C(=O)NCCNC(=O)CCCCCCCCCCBr has an IC50 of > 30 µM (cell growth or viability, MTT; 48 h).
For Clc1nc2ccccc2cc1-c1nc2ccccc2[nH]1, the IC50 was > 100 µM (cell growth or viability, MTT; 48 h).
The IC50 of CCC1=C(CC)C2=[N+]3C1=Cc1c(CC)c(CC)c4[n]1[Ir-3]31([Cl])([C]#[O+])[n]3c(c(CC)c(CC)c3=CC3=[N+]1C(=C4)C(CC)=C3CC)=C2 is reported as > 50 µM (cell growth or viability; dark).
